Measured values of several laboratories.
Compare with care: the assays were run in different laboratories. “And” joins repeats or separate records; there may be more than shown.

Structure (SMILES)	cell line	assay	conditions	how to read	measurement	result
N=C(N/N=C/c1cc(C(F)(F)F)cc(C(F)(F)F)c1)N/N=C/c1cc(C(F)(F)F)cc(C(F)(F)F)c1	PANC-1	crystal violet	72 h	reference: IC50 IMR-90 over IC50 PANC-1	selectivity ratio	1.6
COc1cc(CNC(=O)C[C@H](C)CCC=C(C)C)ccc1OCc1cn(-c2ccc(Cl)c(Cl)c2)nn1	TK-10	SRB	10 µM, 48 h	–	growth percent	90.7%
C=C(C)[C@@H]1CC[C@]2(C(=O)OCO/N=[N+](\[O-])N3CCCC3)CC[C@]3(C)[C@H](CC[C@@H]4[C@@]5(C)CC[C@H](OC(C)=O)C(C)(C)[C@@H]5CC[C@]43C)[C@@H]12	B16-F10	PI flow cytometry	0.25 µM	–	cells in G2 phase	15.9%
COc1cc(CNC(=O)C[C@H](C)CCC=C(C)C)ccc1OCc1cn(-c2ccccc2F)nn1	TK-10	SRB	10 µM, 48 h	–	growth percent	95.8%
CC(=O)OC[C@H]1O[C@@H](Sc2sc(C(=O)c3ccc(Br)cc3)c(N)c2-c2nc3ccccc3s2)[C@H](OC(C)=O)[C@@H](OC(C)=O)[C@H]1OC(C)=O	NCI-H322M	SRB	10 µM, 48 h	reference: untreated	growth	91.8%
COc1cc(CNC(=O)C[C@H](C)CCC=C(C)C)ccc1OCc1cn(-c2cccc(C(F)(F)F)c2)nn1	HOP-92	SRB	10 µM, 48 h	–	growth percent	86.1%
CC(C)Cc1ccc(C(C)C(=O)[O][Pt]([NH2])([NH2])([Cl])([Cl])[O]C(=O)C(Cl)Cl)cc1 (centres unmarked)	PSN1	–	1 µM, 24 h	–	depolarised mitochondria cells	25 to 30%
COc1ccc(C=C2SC(N3N=C(c4cccs4)CC3c3ccc(F)cc3)=NC2=O)cc1 (centres unmarked)	T47D	annexin V-FITC/PI flow cytometry	concentration not given	–	early apoptotic cells	6.28%
O=Cc1c(O)ccc2ccccc12	HUVEC	RNA sequencing, measured: LURAP1L	75 µM, 24 h	reference: DMSO	log2 fold change	3.55
COc1cc(CNC(=O)C[C@H](C)CCC=C(C)C)ccc1OCc1cn(-c2ccc(F)cc2)nn1	NCI-H23	SRB	10 µM, 48 h	–	growth percent	74.9%
N=C(N/N=C/c1ccc(F)cc1)N/N=C/c1ccc(F)cc1	PANC-1	crystal violet	72 h	reference: IC50 hTERT-HPNE over IC50 PANC-1	selectivity ratio	1.7
CC(C)(C)c1nc(-c2cccc(NS(=O)(=O)c3c(F)cccc3F)c2F)c(-c2ccnc(N)n2)s1.Cc1[nH]c2ccccc2c1CCNCc1ccc(/C=C/C(=O)NO)cc1	C13	flow cytometry	concentration not given, 48 h	–	sub-G1 cells	87.9% and > 80%
CC/C=C\C/C=C\C/C=C\C/C=C\C/C=C\C/C=C\CCC(=O)Nc1ccn(C2OC(CO)C(O)C2(F)F)c(=O)n1 (centres unmarked)	HOP-92	NCI60 screen	–	–	TGI	34.5 µM
COc1cc(CNC(=O)C[C@H](C)CCC=C(C)C)ccc1O	KM12	SRB	10 µM, 48 h	–	growth percent	100%
CC(=O)OC[C@H]1O[C@@H](Sc2sc(C(=O)c3ccc(C)cc3)c(N)c2-c2nc3ccccc3s2)[C@H](OC(C)=O)[C@@H](OC(C)=O)[C@@H]1OC(C)=O	NCI-H23	SRB	10 µM, 48 h	reference: untreated	growth	56.1%
O=C1c2c(O)cc(O)cc2-c2c(-c3ccc(O)cc3)oc3cc(O)cc1c23	LCC2 CHIP shRNA knockdown	label-free MS proteomics	10 µM, 24 h	–	upregulated protein count	334
COc1cc(CNC(=O)C[C@H](C)CCC=C(C)C)ccc1OCc1cn(-c2ccccc2)nn1	CAKI-1	SRB	10 µM, 48 h	–	growth percent	93.2%
COC(=O)C1NC(c2ccc[n+](C)c2)C23c4c5c6c7c8c9c(c%10c%11c2c2c4c4c%12c5c5c6c6c8c8c%13c9c9c%10c%10c%11c%11c2c2c4c4c%12c%12c5c5c6c8c6c8c%13c9c9c%10c%10c%11c2c2c4c4c%12c5c6c5c8c9c%10c2c45)C713 (centres unmarked)	BCBL1	cell growth or viability	24 h	–	CC50	15.8 µM
COc1ccc([C@@H]2CC(=O)c3c(O)cc(O[C@@H]4O[C@H](CO[C@@H]5O[C@@H](C)[C@H](O)[C@@H](O)[C@H]5O)[C@@H](O[C@H]5O[C@H](CO)[C@@H](O)[C@H](O)[C@H]5O)[C@H](O)[C@H]4O)cc3O2)cc1O	A549	cell growth or viability, MTS	50 µg/mL, 48 h	–	viability	50.9%
CN(C)C/C=C(/c1ccc(Br)cc1)c1cccnc1	hiPSC cardiac tissues 3D	active force	15 min per concentration, paced at 1 Hz serum-free	–	minimum effective concentration	10 µM
COc1ccc(CN2C(=O)C(=O)c3cc(NC(C)=O)ccc32)cc1	K562	western blot	1 to 10 µM, 24 h	–	Bax protein level	increased
COc1cc(CNC(=O)C[C@H](C)CCC=C(C)C)ccc1OCc1cn(-c2ccc(C#N)cc2)nn1	CAKI-1	SRB	10 µM, 48 h	–	growth percent	62.6%
CC(=C(c1ccc(O)cc1)c1ccc(Cl)cc1)c1ccc(Cl)cc1	NCI-H322M	cell growth or viability, SRB	–	–	GI50	0.91 µM
